Assay results from different studies.
Lines come from different studies, so protocols differ. ± gives the spread as reported.
B1: VPS29 (Arabidopsis thaliana, UniProt Q9STT2); chain MVLVLALGDLHVPHRAADLPPKFKSMLVPGKIQHIICTGNLCIKEIHDYLKTICPDLHIVRGEFDEDARYPENKTLTIGQFKLGLCHGHQVIPWGDLDSLAMLQRQLGVDILVTGHTHQFTAYKHEGGVVINPGSATGAYSSINQDVNPSFVLMDIDGFRAVVYVYELIDGEVKVDKIEFKKPPTTSSGP
B2: PPP2R2A (Homo sapiens, UniProt P63151); chain MAGAGGGNDIQWCFSQVKGAVDDDVAEADIISTVEFNHSGELLATGDKGGRVVIFQQEQENKIQSHSRGEYNVYSTFQSHEPEFDYLKSLEIEEKINKIRWLPQKNAAQFLLSTNDKTIKLWKISERDKRPEGYNLKEEDGRYRDPTTVTTLRVPVFRPMDLMVEASPRRIFANAHTYHINSISINSDYETYLSADDLRINLWHLEITDRSFNIVDIKPANMEELTEVITAAEFHPNSCNTFVYSSSKGTIRLCDMRASALCDRHSKLFEEPEDPSNRSFFSEIISSISDVKFSHSGRYMMTRDYLSVKIWDLNMENRPVETYQVHEYLRSKLCSLYENDCIFDKFECCWNGSDSVVMTGSYNNFFRMFDRNTKRDITLEASRENNKPRTVLKPRKVCASGKRKKDEISVDSLDFNKKILHTAWHPKENIIAVATTNNLYIFQDKVN
B3: ROPGAP3 1-153 (Arabidopsis thaliana, UniProt Q8GYY5); chain MTNFSRSKSTGTIGFPEFKPTRPGPDKYENIHNDDDEYEEGHSTTSTDYYDASTPLSSHASRSGNGSGSGQLTVVDLLAAVLRKSLVMSCAMERGEDDVVASMDIGWPTEVKHVSHVTFDRFNGFLGLPSELEPEVPPRAPSASVSVFGVSAK
B4: PIN2 167-485 (Arabidopsis thaliana, UniProt Q9LU77); chain ETAGSITSFRVDSDVISLNGREPLQTDAEIGDDGKLHVVVRRSSAASSMISSFNKSHGGGLNSSMITPRASNLTGVEIYSVQSSREPTPRASSFNQTDFYAMFNASKAPSPRHGYTNSYGGAGAGPGGDVYSLQSSKGVTPRTSNFDEEVMKTAKKAGRGGRSMSGELYNNNSVPSYPPPNPMFTGSTSGASGVKKKESGGGGSGGGVGVGGQNKEMNMFVWSSSASPVSEANAKNAMTRGSSTDVSTDPKVSIPPHDNLATKAMQNLIENMSPGRKGHVEMDQDGNNGGKSPYMGKKGSDVEDGGPGPRKQQMPPASV
B5: GST-KRP3 (Oryza sativa, UniProt Q2R185); chain MGKYLRSSCKQQQQPSSPAAVASVAAAAVSSYSYLTLRSGRRVPAAAAAAGGSACRRRHRRGGRRGCAKNGAGSARACGARSPTSSASSGQRRRCEAVECSHGGGRAELSRSPPLGNSVVVVSGDVVSGERKSLKPNSCSREVAAEHAGEHKHNPAAAAAAGRRPPLSPPEAEIEAFFAAAELAERRRFAEKYNYDIALDRPLQGRYEWEPTVPNFDVAKDVTDM
B6: CENPW K29A/K30A/R34A/E36A (Homo sapiens, UniProt Q5EE01); sequence looked up; chain MALSTIVSQRKQIKRKAPRGFLKRVFKRAAPQLALAKSGDLLVHLNCLLFVHRLAEESRTNACASKCRVINKEHVLAAAKVILKKSRG
B7: MSMEG_2064 (Mycolicibacterium smegmatis, UniProt A0QU37); chain MAGSAPLRILVYSDNPRTREQVRLALGKRIHPELPEIEYVDVATAPMAISQMDAGGFDLAILDGEATPAGGMGVAKQVKDEIDDCPPILVLTGRADDAWLAKWSRAEAAVPHPIDPIRLSDAVVSLLRAPAQ
B8: NALCN DII-DIII linker 698-772 (Homo sapiens); chain WGEDNKYIDQKLRKSVFSIRARNLLEKETAVTKILRACTRQRMLSGSFEGQPAKERSILSVQHHIRQERRSLRHGSN
B9: rplP (Mycobacterium smegmatis, UniProt A0QSD8); chain MLIPRKVKHRKQHHPEQRGIASGGTSVSFGDYGIQALEHAYITNRQIESARIAINRHIKRGGKVWINIFPDRPLTKKPAETRMGSGKGSPEWWVANVKPGRVLFELSYPDEKTARDALTRAIHKLPIKARIVTREEQF
B10: atpG 1-289 (Acinetobacter baumannii, UniProt A3M143); chain MANLKEIRAKVASIKSTQKITRAMQMVAASKMRRAQERMAQGRPYADNMRRVIAHLVQANPEYKHRYMVDRPVKRVGYIIVSSDRGLAGGLNINLFKKVVQHVKAQQEQSIEVQFALIGQKAVSFFKNYGGKVLGATTQIGDAPSLEQLTGSVQVMLDAFDKGELDRIYLVSNGFVNAMTQKPKVEQLVPLAPAEEGDDLNRTYGWDYIYEPEAEELLNGLLVRYIESMVYQGVIENVACEQSARMVAMKAATDNAGQLIKDLQLIYNKLRQAAITQEISEIVGGAAAV
B11: NuoA (Mycolicibacterium smegmatis, UniProt A0QU36); chain MALYTPILILGAIAAVFAVVSVGIALVIGPRRFNRSKLEAYECGIDPLPPVAAGLTGQRIPIRYYLIAMLFIVFDIEIVFLYPWAVAFDSLGLFAVIEMLLFMLTVFVAYAYVWRRGGLNWD
B12: Atg32 1-381 (Saccharomyces cerevisiae, UniProt P40458); chain MVLEYQQREGKGSSSKSMPPDSSSTTIHTCSEAQTGEDKGLLDPHLSVLELLSKTGHSPSPMGQNLVTSIDISGNHNVNDSISGSWQAIQPLDLGASFIPERCSSQTTNGSILSSSDTSEEEQELLQAPAADIINIIKQGQEGANVVSPSHPFKQLQKIISLPLPGKEKTPFNEQDDDGDEDEAFEEDSVTITKSLTSSTNSFVMPKLSLTQKNPVFRLLILGRTGSSFYQSIPKEYQSLFELPKYHDSATFPQYTGIVIIFQELREMVSLLNRIVQYSQGKPVIPICQPGQVIQVKNVLKSFLRNKLVKLLFPPVVVTNKRDLKKMFQRLQDLSLEYGEDVNEEDNDDEAIHTKSRSYCRNKKAENSKKKSPKSNKKPKR
B13: cfap-20 (Caenorhabditis elegans, UniProt Q86D25); sequence looked up; chain MFHNTFQSGLLSVLYSIGSKPLQIWDTQIKNGHVKRITDEEIQSLVLEIMGNNISTAFISCPVDPDKTLGIKLPFFVMVVKNMNKYFSFEVQIIDDKKIKRRFRASNYQSATRVKPFICTMPMRMDEGWNQIQFNLSDFVKRAYGTNYVETLRIQIHANCRIRRVYFADRLYTEDELPAEFKLYLPIRGQLSTQSPAFAMTSE
B14: NuoB (Mycolicibacterium smegmatis, UniProt A0QU35); chain MGLEERLPGGILLSTVETVAGYVRKGSLWPATFGLACCAIEMMSTAGPRFDIARFGMERFSATPRQADLMIVAGRVSQKMAPVLRQIYDQMVEPKWVLAMGVCASSGGMFNNYAVVQGVDHVVPVDIYLPGCPPRPEMLLHAILKLHDKIQQMPLGVNREEAIREAEQAALAVPPTIELKGLLR
B15: NVJ1 229-321 (Saccharomyces cerevisiae, UniProt P38881); chain NREKDCSSSSEVESQSKCRKESTAEPDSLSRDTRTTSSLKSSTSFPISFKGSIDLKSLNQPSSLLHIQVSPTKSSNLDAQVNTEQAYSQPFRY
B16: ife-1 (Caenorhabditis elegans, UniProt O45551); chain MTETEQTTAPIYPLKRNWTWWYLNDERNKSWEDRLKKVYTFNTVSEFWALYDAIRPPSGLNALCDYNVFRDDIQPMWEVPENSNGGRWLIVIDKGKTPEMVDAIWLEILMALVGEQFGKDMESICGLVCNVRGKGSKISVWTKDCNDDETNMRIGVVLKEKLMAASKDHSKPLFDVIRYEDHESCQKKTSSVVKAKLSLHSSDAPVAEKSAV

B1 (VPS29)  binding (BLI (Arabidopsis thaliana, UniProt Q9LIQ9); pull-down): binds
insulin human  mRNA fold change (item: NDN; mouse, EcoHIV-infected, brain; ip, dose not given, together with: insulin; reference: PBS-treated): 1.1
HAG2 (Arabidopsis thaliana, UniProt Q9FJT8)  binding (Histone H4 (Homo sapiens, UniProt P62805); pull-down): binds
B2 (PPP2R2A)  binding (ARPP19 R52A (Homo sapiens, UniProt P56211); co-IP; HeLa; reference: wild-type ARPP19, higher = more binding): < 25 % vs wt
B3 (ROPGAP3 1-153)  binding (PIN2 167-485 (Arabidopsis thaliana, UniProt Q9LU77); pull-down; in vitro): binds
HBV core protein C-terminal NLS peptide (hepatitis B virus) (sequence not shown)  binding (Kpna2 fragment (Mus musculus); crystal structure): binds
B4 (PIN2 167-485)  binding (ROPGAP3 (Arabidopsis thaliana, UniProt Q8GYY5); pull-down; in vitro): binds
MPQLNGGGGDDLGANDELISFKDEGEQEEKSSENSSAERDLADVKSSLVNESE (TCF7L2 1-53 (Homo sapiens, UniProt Q9NQB0))  binding (CTNNB1 E462K (Homo sapiens, UniProt P35222); BLI): binds
MSI3 (Arabidopsis thaliana, UniProt O22469)  binding (Histone H3.1 (Homo sapiens, UniProt P68431); pull-down): binds
B5 (GST-KRP3)  binding (MPK3 (Oryza sativa, UniProt Q10N20); pull-down): binds
B6 (CENPW K29A/K30A/R34A/E36A)  binding (CENPT (Homo sapiens, UniProt Q96BT3); pull-down): binds
B7 (MSMEG_2064)  binding (nuoI (Mycolicibacterium smegmatis, UniProt A0QU28); cryo-EM): binds
NNDNPLFKSA (ITGB2 residues 748-757 (Homo sapiens))  binding (TLN1 head domain 1-430 K306Q/del139-168, fused to integrin β2 (UniProt P26039); crystal structure; peptide): binds
YQGSQCGSLSMLLGKSKPFCTFVEG (PF3D7_0900200 peptide 243-267 (Plasmodium falciparum, UniProt Q8I3E4); sequence looked up)  binding (LILRB1 24-461 (Homo sapiens, UniProt Q8NHL6); SPR; peptide): binds
aspterric acid  root length (Arabidopsis thaliana Col-0 seeds; 6.25 µg/mL, seed germination): 0.127 cm
Polymyxin B  survival (mouse; intraperitoneal, 40 mg/kg single dose, day 3): 0%
B8 (NALCN DII-DIII linker 698-772)  binding (STX1A/SNAP25 (Homo sapiens); SEC; peptide): binds
B9 (rplP)  binding (hflX (Mycobacterium smegmatis, UniProt A0QVY1); cryo-EM): binds
B10 (atpG 1-289)  binding (atpD 1-464 (Acinetobacter baumannii, UniProt A3M144); cryo-EM): binds
LQLQKGSDTEAQCE (INTS3 584-597; pS590/pT592)  binding (NBN 1-334 S118A (Homo sapiens, UniProt O60934); ITC; peptide): binds
B11 (NuoA)  binding (MSMEG_2064 (Mycolicibacterium smegmatis, UniProt A0QU37); cryo-EM): binds
KLLITIHDRKEFAKFEEERARAKWDTANNPLYKEATSTFTNITYRGT (ITGB3 742-788 (Homo sapiens, UniProt P05106))  binding (TLN1 head 1-405 K306Q/E269A/Y270A/del139-168 (UniProt P26039); pull-down; GST-β3 tail): binds
B12 (Atg32 1-381)  binding (ATG11, Alexa Fluor 594 label (Saccharomyces cerevisiae, UniProt Q12527); fluorescence microscopy; liposomes): binds
B13 (cfap-20)  binding (jbts-26 (Caenorhabditis elegans, UniProt O44770); pull-down): binds
heparin sodium  subjects with adverse event (item: Hypokalemia; human healthy Chinese adults; intravenous infusion, 8 IU/kg/h, 5 days): 0%
nonaarginine  Kd (PorA peptide pore; peptide binding, planar bilayer single-channel recording; pH 7.4, +15 mV, trans side, 150 mM KCl): 1.43 ± 0.15 µM
B14 (NuoB)  binding (NuoH (Mycolicibacterium smegmatis, UniProt A0QU29); cryo-EM): binds
B15 (NVJ1 229-321)  binding (VAC8 1-578 L31R (Saccharomyces cerevisiae, UniProt P39968); pull-down): binds
HVLVMSATRR  severity score (H&E histopathology, item: mononuclear cell infiltrate; peptide, C57BL/6J mouse, female, kidney; Alzet pump, 3 mg/kg, 8 weeks; direction not given): 1 F
B16 (ife-1)  binding (pgl-1 R123E (Caenorhabditis elegans, UniProt Q9TZQ3); pull-down): binds

Some of these lines once more:
B7 (MSMEG_2064)  binding (nuoI (Mycolicibacterium smegmatis, UniProt A0QU28); cryo-EM): binds
NNDNPLFKSA (ITGB2 residues 748-757 (Homo sapiens))  binding (TLN1 head domain 1-430 K306Q/del139-168, fused to integrin β2 (UniProt P26039); crystal structure; peptide): binds
YQGSQCGSLSMLLGKSKPFCTFVEG (PF3D7_0900200 peptide 243-267 (Plasmodium falciparum, UniProt Q8I3E4); sequence looked up)  binding (LILRB1 24-461 (Homo sapiens, UniProt Q8NHL6); SPR; peptide): binds
aspterric acid  root length (Arabidopsis thaliana Col-0 seeds; 6.25 µg/mL, seed germination): 0.127 cm
